{"data": "Measured values collected from several papers", "note": "Numbered parts are unrelated; each lists some results of a single study.", "UniProt P47898, sequence (whole entry, looked up)": "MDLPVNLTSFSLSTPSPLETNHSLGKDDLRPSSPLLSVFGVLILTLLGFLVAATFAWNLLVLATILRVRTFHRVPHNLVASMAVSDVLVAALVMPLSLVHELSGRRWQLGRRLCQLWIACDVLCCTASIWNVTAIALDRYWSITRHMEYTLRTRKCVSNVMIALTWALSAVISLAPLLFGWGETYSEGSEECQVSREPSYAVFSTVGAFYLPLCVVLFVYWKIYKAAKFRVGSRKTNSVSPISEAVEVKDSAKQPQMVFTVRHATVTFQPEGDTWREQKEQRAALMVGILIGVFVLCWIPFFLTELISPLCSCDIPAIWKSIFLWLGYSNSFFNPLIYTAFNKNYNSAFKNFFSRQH", "UniProt P21728, sequence (whole entry, looked up)": "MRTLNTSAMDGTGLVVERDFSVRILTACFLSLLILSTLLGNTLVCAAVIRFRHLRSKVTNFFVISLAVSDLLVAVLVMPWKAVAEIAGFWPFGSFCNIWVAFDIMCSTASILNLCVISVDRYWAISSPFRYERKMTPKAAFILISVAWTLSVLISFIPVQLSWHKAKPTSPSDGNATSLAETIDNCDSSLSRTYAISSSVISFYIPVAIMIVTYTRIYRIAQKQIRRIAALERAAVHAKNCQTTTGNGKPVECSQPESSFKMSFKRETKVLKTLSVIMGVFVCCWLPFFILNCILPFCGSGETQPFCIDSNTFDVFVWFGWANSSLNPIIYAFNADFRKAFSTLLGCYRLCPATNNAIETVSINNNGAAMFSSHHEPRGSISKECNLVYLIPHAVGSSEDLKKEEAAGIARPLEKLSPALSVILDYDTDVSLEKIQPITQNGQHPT"}
{"data": "Study 1", "target": "Beta-1 adrenergic receptor (ADRB1, Homo sapiens, UniProt P08588)", "action": "antagonist", "UniProt P08588, sequence (whole entry, looked up)": "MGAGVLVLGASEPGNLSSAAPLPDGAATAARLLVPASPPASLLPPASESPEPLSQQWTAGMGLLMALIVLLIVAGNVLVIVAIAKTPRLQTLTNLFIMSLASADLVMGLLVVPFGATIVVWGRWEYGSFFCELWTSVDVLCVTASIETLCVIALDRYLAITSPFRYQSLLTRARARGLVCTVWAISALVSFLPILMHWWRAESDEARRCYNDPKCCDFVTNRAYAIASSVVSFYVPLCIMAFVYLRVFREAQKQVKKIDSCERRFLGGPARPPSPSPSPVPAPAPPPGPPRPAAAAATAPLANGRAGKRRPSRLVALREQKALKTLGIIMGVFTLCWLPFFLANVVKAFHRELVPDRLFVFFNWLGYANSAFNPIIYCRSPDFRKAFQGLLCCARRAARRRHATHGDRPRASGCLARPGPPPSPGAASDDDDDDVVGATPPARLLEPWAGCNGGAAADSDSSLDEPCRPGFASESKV"}
{"Compound": "COc1ccccc1N1CCN(CC(O)COc2cccc3ccccc23)CC1 (stereo not drawn)", "IC50": "≥ 100 µM"}
{"Compound": "O=C(Cc1ccccc1)Nc1ccc([C@@H](O)[C@H]2COCC(=O)N2Cc2ccccc2F)cc1", "IC50": "≥ 100 µM"}
{"Compound": "CC(C)CN1C(=O)COC[C@@H]1[C@H](O)c1ccc(NC(=O)CCc2ccccc2)cc1", "IC50": "≥ 100 µM"}
{"Compound": "CN(c1ccccc1)c1cc(=O)c2ccnc(NC3CCOCC3)c2o1", "IC50": "≥ 100 µM"}
{"Compound": "O=C(Nc1cc(F)ccc1Cl)c1cc2n(n1)CC(c1ccc(Br)cc1)OC2 (stereo not drawn)", "IC50": "≥ 100 µM"}
{"data": "Study 2", "species": "human", "matrix": "microsomes or S9", "concentration": "2 µM", "time": "0.5 h"}
{"Compound": "COc1cc(=O)n2c(c1C(=O)NCc1ccc(F)cc1)CCCC2", "remaining compound [%]": 71}
{"Compound": "CCCC1CN(CC(=O)N(C(C)C)C(C)C)CCN1CC(=O)N(C(C)C)C(C)C (stereo not drawn)", "remaining compound [%]": 15}
{"Compound": "N#Cc1c(-c2ccccc2)cc(O)n2c1nc1ccccc12", "remaining compound [%]": 59}
{"data": "Study 3", "target": "Histone acetyltransferase KAT6A, both winged helices, GST fusion (KAT6A, Homo sapiens, UniProt Q92794, residues 1-181)", "technique": "protein binding microarray", "molecule type": "double-stranded DNA, one strand shown", "matrix": "in vitro", "concentration": "not given", "notes": "8-mer, flanks averaged, mean of 2 arrays, mostly near background", "relative to": "not given", "direction": "higher = stronger binding", "Construct (chain)": "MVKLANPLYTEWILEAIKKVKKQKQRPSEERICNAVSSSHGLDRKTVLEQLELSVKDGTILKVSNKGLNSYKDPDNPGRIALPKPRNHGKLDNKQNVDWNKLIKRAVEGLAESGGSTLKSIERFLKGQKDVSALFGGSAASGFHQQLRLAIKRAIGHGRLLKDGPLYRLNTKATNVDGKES"}
{"Strand": "ACTATTCA", "E-score": -0.0646}
{"Strand": "ATAGTGTG", "E-score": -0.098}
{"Strand": "AGGCCAAA", "E-score": -0.189}
{"Strand": "ATTTATAA", "E-score": -0.0604}
{"Strand": "GATATCCC", "E-score": 0.114}
{"Strand": "GTGCGTTA", "E-score": 0.177}
{"Strand": "GGCGGACA", "E-score": 0.172}
{"Strand": "CTACTCGA", "E-score": 0.00621}
{"data": "Other studies, line by line", "concentration": "10 µM"}
{"SMILES": "C[C@H](NC(=O)Nc1cc2[nH]ncc2c(CO)n1)c1ccccn1", "target": "DRD1 (Homo sapiens, UniProt P21728)", "test": "cell-free assay", "inhibition": "4.28%"}
{"SMILES": "O=c1nc(-c2ccccn2)sc2ccccc12", "target": "HTR5A (Homo sapiens, UniProt P47898)", "test": "ligand displacement", "inhibition": "-10.2%"}
{"note": "A few entries again (study 3):"}
{"Strand": "ATAGTGTG", "E-score": -0.098}
{"Strand": "CTACTCGA", "E-score": 0.00621}
